Experimental data from different studies.
Protocols differ between the studies behind these lines.

Substance = Nc1ncnc2c([C@@H]3N[C@H](CO)[C@@H](O)[C@H]3O)c[nH]c12; target or system = Zaire ebolavirus; assay = antibody staining; test system = human macrophages; setting = 1.6 µM; quantity = antigen-positive cells; value = 52.2%
Substance = AEVQIDRL; assay = AIM; test system = peptide, CD8+ T cells from PBMC, human donors; setting = dose not given; quantity = response magnitude per positive donor; value = 101
Substance = O=c1cc(-c2ccc(Oc3c(O)cc4oc(-c5ccc(O)cc5)cc(=O)c4c3O)cc2)oc2cc(O)cc(O)c12; target or system = Replicase polyprotein 1ab, main protease (rep, Severe acute respiratory syndrome coronavirus 2, UniProt P0DTD1); assay = reporter gene (mKate2), inhibitor; setting = 20 µM; quantity = inhibition; value = -0.035%
Substance = CC[C@H](C)[C@H](NC(=O)[C@H](CC(C)C)NC(=O)[C@H](Cc1c[nH]c2ccccc12)NC(=O)[C@H](CCC(N)=O)NC(=O)[C@@H](NC(=O)[C@H](Cc1ccccc1)NC(=O)[C@H](C)NC(=O)[C@H](CCCCNC(=O)COCCOCCNC(=O)COCCOCCNC(=O)CC[C@H](NC(=O)CCCCCCCCCCCCCCCCCCC(=O)O)C(=O)O)NC(=O)[C@H](CCC(N)=O)NC(=O)[C@H](C)NC(=O)[C@@H](NC(=O)[C@H](CCCCN)NC(=O)[C@H](CC(=O)O)NC(=O)[C@H](CC(C)C)NC(=O)C(C)(C)NC(=O)[C@@H](NC(=O)[C@H](CO)NC(=O)[C@H](Cc1ccc(O)cc1)NC(=O)[C@H](CC(=O)O)NC(=O)[C@H](CO)NC(=O)[C@@H](NC(=O)[C@H](Cc1ccccc1)NC(=O)[C@@H](NC(=O)CNC(=O)[C@H](CCC(=O)O)NC(=O)C(C)(C)NC(=O)[C@@H](N)Cc1ccc(O)cc1)[C@@H](C)O)[C@@H](C)O)[C@@H](C)CC)[C@@H](C)CC)C(C)C)C(=O)N[C@@H](C)C(=O)NCC(=O)NCC(=O)N1CCC[C@H]1C(=O)N[C@@H](CO)C(=O)N[C@@H](CO)C(=O)NCC(=O)N[C@@H](C)C(=O)N1CCC[C@H]1C(=O)N1CCC[C@H]1C(=O)N1CCC[C@H]1C(=O)N[C@@H](CO)C(N)=O; test system = human, plasma; setting = subcutaneous, 0.5 mg, day 1, multiple ascending dose, median; quantity = Tmax; value = 36 h
Substance = RIAGHHLGR; assay = AIM; test system = peptide, CD8+ T cells from PBMC, human donors; setting = dose not given; quantity = response magnitude per positive donor; value = 106
Substance = Cn1cnc(Cn2c(=O)[nH]/c(=N\c3cc4cn(C)nc4cc3Cl)n(Cc3cc(F)c(F)cc3F)c2=O)n1; test system = human, severe renal impairment, plasma; setting = oral, 375 mg single dose; quantity = Tmax; value = 2.75 h

Excerpt of the above:
Substance = AEVQIDRL; assay = AIM; test system = peptide, CD8+ T cells from PBMC, human donors; setting = dose not given; quantity = response magnitude per positive donor; value = 101
